Assay results from different studies.
Protocols differ between the studies behind these lines. ± marks the error that the study gave.

`O=C(CSc1nc2c(c(=O)[nH]1)CCCC2)NNC(=O)c1ccc([N+](=O)[O-])cc1` gave an inhibition of 20 ± 3.3% (SARS-CoV-2; viral adsorption, plaque reduction; 31.25 µM).
The inhibition of `Cc1cccc(/C=N/Nc2cc(N3CCOCC3)nc(OCCc3ccccn3)n2)c1` is reported as 93.8% (SARS-CoV-2; viral replication; Vero E6, USA-WA1/2020; 2.5 µM).
For `Nc1ncnc2c([C@@H]3N[C@H](CO)[C@@H](O)[C@H]3O)c[nH]c12`, the inhibition was 70.8% (Marburg virus; surface glycoprotein expression; HeLa, Musoke; 100 µM, 24 h).
For `CN(C)CCn1c(C(=O)N2CCN(c3ccccc3Cl)CC2)c(C(c2ccc(O)cc2)c2ccc(O)cc2)c2ccccc21`, the inhibition was 55.3% (SARS-CoV-2; viral replication; Vero E6, USA-WA1/2020; 2.5 µM).
With `O=C(/C=C/c1ccc(O)c(O)c1/C=C/c1ccc(O)c(O)c1)O[C@H](Cc1ccc(O)c(O)c1)C(=O)O` the inhibition was 0% (SARS-CoV-2; cytopathic effect; Vero E6; 12.5 µM, first run).
Under “subjects with adverse event”, `CC[C@H](C)[C@H](NC(=O)[C@H](CC(C)C)NC(=O)[C@H](Cc1c[nH]c2ccccc12)NC(=O)[C@H](CCC(N)=O)NC(=O)[C@@H](NC(=O)[C@H](Cc1ccccc1)NC(=O)[C@H](C)NC(=O)[C@H](CCCCNC(=O)COCCOCCNC(=O)COCCOCCNC(=O)CC[C@H](NC(=O)CCCCCCCCCCCCCCCCCCC(=O)O)C(=O)O)NC(=O)[C@H](CCC(N)=O)NC(=O)[C@H](C)NC(=O)[C@@H](NC(=O)[C@H](CCCCN)NC(=O)[C@H](CC(=O)O)NC(=O)[C@H](CC(C)C)NC(=O)C(C)(C)NC(=O)[C@@H](NC(=O)[C@H](CO)NC(=O)[C@H](Cc1ccc(O)cc1)NC(=O)[C@H](CC(=O)O)NC(=O)[C@H](CO)NC(=O)[C@@H](NC(=O)[C@H](Cc1ccccc1)NC(=O)[C@@H](NC(=O)CNC(=O)[C@H](CCC(=O)O)NC(=O)C(C)(C)NC(=O)[C@@H](N)Cc1ccc(O)cc1)[C@@H](C)O)[C@@H](C)O)[C@@H](C)CC)[C@@H](C)CC)C(C)C)C(=O)N[C@@H](C)C(=O)NCC(=O)NCC(=O)N1CCC[C@H]1C(=O)N[C@@H](CO)C(=O)N[C@@H](CO)C(=O)NCC(=O)N[C@@H](C)C(=O)N1CCC[C@H]1C(=O)N1CCC[C@H]1C(=O)N1CCC[C@H]1C(=O)N[C@@H](CO)C(N)=O` is recorded as 16.7% (refers to: treatment-emergent decreased appetite; healthy subjects; 1.5 mg, multiple ascending dose).
`CC(C)(C)[C@H](NC(=O)C(F)(F)F)C(=O)N1C[C@H]2[C@@H]([C@H]1C(=O)N[C@H](C#N)C[C@@H]1CCNC1=O)C2(C)C` has an inhibition of 5.79% (SARS-CoV-2; viral replication, infectious virus; Vero E6; 0.00046 µM).
For `CCN(CC)CCNC(=O)c1cc(-c2ccc(Br)s2)nc2ccccc12`, the maximum response was 72% (SARS-CoV-2; cytopathic effect; USA_WA1/2020; round 1, 5-point).
`CCN(CCO)CCCC(C)Nc1ccnc2cc(Cl)ccc12` (stereo not drawn) gave an inhibition of 23.7% (SARS-CoV-2; 30 µM).
`O=C(CSc1nc2c(c(=O)[nH]1)CCCC2)NNC(=O)c1ccc(Cl)cc1` has an inhibition of 15.6 ± 13.9% (SARS-CoV-2; virucidal activity, plaque reduction; 31.25 µM).
`CC(C)=CCN1Cc2cc(Cl)cc3[nH]c(=S)n(c23)C[C@@H]1C` has an inhibition of 79.1% (SARS-CoV-2; viral replication; Vero E6, USA-WA1/2020; 2.5 µM).
`O=C(O[C@@H]1Cc2c(O)cc(O)cc2O[C@@H]1c1cc(O)c(O)c(O)c1)c1cc(O)c(O)c(O)c1` gave an inhibition of 0% (SARS-CoV-2; viral cytopathic effect; Vero E6; 3.125 µM).
With `O=C(CSc1nc2ccccc2c(=O)[nH]1)NNC(=O)c1ccccc1Br` the inhibition was 37.3 ± 6.43% (SARS-CoV-2; virucidal activity, plaque reduction; 62.5 µM).
`COc1ccc(C[C@@H]2c3cc(Oc4cc(C[C@@H]5c6cc(O)c(OC)cc6CCN5C)ccc4O)c(OC)cc3CCN2C)cc1` has an inhibition of 25% (SARS-CoV-2; cytopathic effect; Vero E6; 50 µM, replicate run).
`CC1CCN(CCCNC(=O)c2cc(Sc3ccc(F)cc3)nc3ccccc23)CC1` has an efficacy of 97.6% (SARS-CoV-2; cytopathic effect, cell-based CPE; USA_WA1/2020; round 2, 5-point dilution).
`C/C1=C\CC[C@@]2(C)O[C@@H]2[C@H]2OC(=O)[C@H](CN(C)C)[C@@H]2CC1` gave an inhibition of 40.8% (SARS-CoV-2; viral replication; Vero E6, USA-WA1/2020; 2.5 µM).
`Cn1cnc(Cn2c(=O)[nH]/c(=N\c3cc4cn(C)nc4cc3Cl)n(Cc3cc(F)c(F)cc3F)c2=O)n1` has an inhibition of 0% (SARS-CoV-2; viral replication; Vero C1008, wild type; 0.01715 µM).
For `CC(C)=CCc1c(O)ccc(C(=O)/C=C/c2ccc(O)cc2)c1O`, the inhibition was 0% (SARS-CoV-2; cytopathic effect; Vero E6; 1.562 µM, first run).
Under “patients with adverse event”, `Cn1cnc(Cn2c(=O)[nH]/c(=N\c3cc4cn(C)nc4cc3Cl)n(Cc3cc(F)c(F)cc3F)c2=O)n1` is recorded as 0% (human, all renal function groups; oral, 375 mg, vessel puncture site haemorrhage TEAE, Moderate severity).
For `C/C(=C\c1ccc(C(=O)O)s1)c1cc2c(cc1C)C(C)(C)CCC2(C)C`, the inhibition was 44.9% (SARS-CoV-2; viral replication; Vero E6, USA-WA1/2020; 2.5 µM).
`CNC(=O)[C@@H](NC(=O)[C@H](CC(C)C)[C@H](O)C(=O)NO)C(C)(C)C` gave a viability difference of 9.03% (C2C12; 10 µM, added: WB venom; baseline: venom alone).

Some of these lines once more:
`CC(C)=CCN1Cc2cc(Cl)cc3[nH]c(=S)n(c23)C[C@@H]1C` has an inhibition of 79.1% (SARS-CoV-2; viral replication; Vero E6, USA-WA1/2020; 2.5 µM).
Under “patients with adverse event”, `Cn1cnc(Cn2c(=O)[nH]/c(=N\c3cc4cn(C)nc4cc3Cl)n(Cc3cc(F)c(F)cc3F)c2=O)n1` is recorded as 0% (human, all renal function groups; oral, 375 mg, vessel puncture site haemorrhage TEAE, Moderate severity).
`CCN(CCO)CCCC(C)Nc1ccnc2cc(Cl)ccc12` (stereo not drawn) gave an inhibition of 23.7% (SARS-CoV-2; 30 µM).
